# Measured values of several laboratories.
# Compare with care: the assays were run in different laboratories. Positions of bridges follow the written chain, without caps; N, C: chain ends. Non-standard residues stand in square brackets, D forms with d. No end group written: not given here. *: point of attachment.
# hfq full length assumed: hfq full length assumed (Pseudomonas fluorescens, UniProt C3KDW3)
# UniProt C3KDW3, sequence (whole entry, looked up): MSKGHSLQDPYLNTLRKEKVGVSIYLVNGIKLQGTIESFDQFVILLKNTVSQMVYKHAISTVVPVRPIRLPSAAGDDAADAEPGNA
# UniProt Q9I0M3, sequence (whole entry, looked up): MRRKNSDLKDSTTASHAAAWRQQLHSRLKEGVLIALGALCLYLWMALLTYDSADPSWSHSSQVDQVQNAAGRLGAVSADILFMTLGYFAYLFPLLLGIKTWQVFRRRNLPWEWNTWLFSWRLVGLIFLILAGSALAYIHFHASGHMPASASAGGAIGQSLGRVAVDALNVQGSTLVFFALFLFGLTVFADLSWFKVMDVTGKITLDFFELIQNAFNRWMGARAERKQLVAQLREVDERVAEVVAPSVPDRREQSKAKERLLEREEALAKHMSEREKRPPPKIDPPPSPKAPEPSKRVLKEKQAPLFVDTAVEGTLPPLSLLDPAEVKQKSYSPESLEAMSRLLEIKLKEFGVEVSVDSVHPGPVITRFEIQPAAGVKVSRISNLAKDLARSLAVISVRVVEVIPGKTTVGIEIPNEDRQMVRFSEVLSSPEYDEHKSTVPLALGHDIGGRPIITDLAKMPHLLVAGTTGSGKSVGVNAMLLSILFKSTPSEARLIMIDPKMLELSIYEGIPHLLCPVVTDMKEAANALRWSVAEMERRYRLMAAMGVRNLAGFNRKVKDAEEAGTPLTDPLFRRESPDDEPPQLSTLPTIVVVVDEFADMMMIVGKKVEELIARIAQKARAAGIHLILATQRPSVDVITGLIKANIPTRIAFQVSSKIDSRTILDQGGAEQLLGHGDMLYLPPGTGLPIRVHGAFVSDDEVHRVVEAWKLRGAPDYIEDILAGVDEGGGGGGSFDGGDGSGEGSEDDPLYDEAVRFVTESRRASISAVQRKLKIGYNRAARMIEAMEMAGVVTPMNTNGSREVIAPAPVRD
# UniProt Q07820, sequence (172-320, unmodified, looked up): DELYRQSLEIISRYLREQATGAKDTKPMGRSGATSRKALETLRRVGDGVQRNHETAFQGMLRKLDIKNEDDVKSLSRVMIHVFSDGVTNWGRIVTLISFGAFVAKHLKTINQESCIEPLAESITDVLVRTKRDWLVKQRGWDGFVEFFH
# UniProt P0A6R3, sequence (whole entry, looked up): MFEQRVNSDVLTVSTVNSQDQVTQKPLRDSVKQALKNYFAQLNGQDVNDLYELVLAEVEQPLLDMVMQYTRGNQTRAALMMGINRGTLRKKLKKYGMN
Substance,tested on,test,test system,conditions,how to read,measurement,value
CAGATCGATTATGCCCCAATAACCACACTCAACCCATGATGTTTGTTAAGATAGTGGCGAATTGATGCAAAGGAGGTG (dsDNA),"fis full length assumed (Escherichia coli, UniProt P0A6R3)",EMSA,"double-stranded DNA, one strand shown",,,binding,binds
TTCTTTGTGGTATAATTGCAAGAGGT (dsDNA),"Aspartate aminotransferase (Streptococcus pneumoniae, UniProt Q8DNN5)",EMSA,"double-stranded DNA, one strand shown",one complex,,binding,binds
ACCAGGGCAGGGCGAC (dsDNA),"ftsK 743-811 (Pseudomonas aeruginosa, UniProt Q9I0M3)",NMR,"double-stranded DNA, one strand shown",pH 7.0,,binding,binds
UNC13D D127N/D133N/D941N/D947N,PTK2,co-IP,HEK293,"no EGTA, read off a plot",higher = more binding,signal,0.43%
AGATATCTAATTGTTAGTAAGCTAATTATTG (dsDNA),"HTH marR-type domain-containing protein full length assumed (Staphylococcus aureus, UniProt A0A0H3JPT9)",fluorescence polarization,"double-stranded DNA, one strand shown",,,Kd,187 nM
TGCCGCTGGGTAGGCCAACCGGACGAGGTCTTCAGGCAT (dsDNA),"rccR (Pseudomonas aeruginosa, UniProt A0A071KWR3)",EMSA,"double-stranded DNA, one strand shown",with: KDPG 8 µM,,binding,binds
CGCUACACCAACAACAAACGGGCUG (ssRNA),hfq full length assumed,EMSA,RNA,,,binding,binds
GGGGCGCGGGTGCCAGGGCGTGCCCTTGGGCTCCCCGGGCGCGTACTCCG (dsDNA),"Int 155-605 (Streptomyces phage phiC31, UniProt Q9T221)",EMSA,"double-stranded DNA, one strand shown",,,binding,binds
UCUCAGGAUAAGAAUAAUUAAGGAC (ssRNA),hfq full length assumed,EMSA,RNA,,,binding,binds
"{FITC-βAla}-KALETLR[S5]VGD[S5]VQRNHETAF (designed peptide (Homo sapiens); staple 8-12; N-terminal FITC-βAla; i,i+4 hydrocarbon staple; FITC = O=C1OC2(c3ccc(O)cc3Oc3cc(O)ccc32)c2ccc(NC(=S)*)cc21; βAla = NCCC(=O)O; S5 = C=CCCC[C@](C)(N)C(=O)O)","MCL1 residues 172-320 (Homo sapiens, UniProt Q07820)","competition with ligand, FP",peptide,read off a plot,,Ki,3100 nM

# For quick reference, copied from above:
Substance,tested on,test,test system,conditions,how to read,measurement,value
AGATATCTAATTGTTAGTAAGCTAATTATTG (dsDNA),"HTH marR-type domain-containing protein full length assumed (Staphylococcus aureus, UniProt A0A0H3JPT9)",fluorescence polarization,"double-stranded DNA, one strand shown",,,Kd,187 nM
